Assay results pooled from the literature.
Parts stem from different laboratories: compare values within a part only. Several values in a cell are separate wells, animals, samples, runs or records.
Sequence of UniProt P51451 (whole entry, looked up): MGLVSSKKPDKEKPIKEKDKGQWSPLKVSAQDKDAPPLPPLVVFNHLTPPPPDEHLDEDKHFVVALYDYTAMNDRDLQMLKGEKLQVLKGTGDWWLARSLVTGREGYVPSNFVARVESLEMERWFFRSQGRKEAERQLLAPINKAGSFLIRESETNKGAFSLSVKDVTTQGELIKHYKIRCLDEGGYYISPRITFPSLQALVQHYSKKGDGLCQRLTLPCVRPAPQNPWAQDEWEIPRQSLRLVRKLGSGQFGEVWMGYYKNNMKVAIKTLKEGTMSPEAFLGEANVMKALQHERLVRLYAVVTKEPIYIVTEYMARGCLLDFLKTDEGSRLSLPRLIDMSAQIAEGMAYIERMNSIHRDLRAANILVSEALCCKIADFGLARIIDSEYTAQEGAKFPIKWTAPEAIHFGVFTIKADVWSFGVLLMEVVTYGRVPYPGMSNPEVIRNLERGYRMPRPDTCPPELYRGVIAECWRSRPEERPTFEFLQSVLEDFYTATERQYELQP
Sequence of UniProt Q9UK32 (whole entry, looked up): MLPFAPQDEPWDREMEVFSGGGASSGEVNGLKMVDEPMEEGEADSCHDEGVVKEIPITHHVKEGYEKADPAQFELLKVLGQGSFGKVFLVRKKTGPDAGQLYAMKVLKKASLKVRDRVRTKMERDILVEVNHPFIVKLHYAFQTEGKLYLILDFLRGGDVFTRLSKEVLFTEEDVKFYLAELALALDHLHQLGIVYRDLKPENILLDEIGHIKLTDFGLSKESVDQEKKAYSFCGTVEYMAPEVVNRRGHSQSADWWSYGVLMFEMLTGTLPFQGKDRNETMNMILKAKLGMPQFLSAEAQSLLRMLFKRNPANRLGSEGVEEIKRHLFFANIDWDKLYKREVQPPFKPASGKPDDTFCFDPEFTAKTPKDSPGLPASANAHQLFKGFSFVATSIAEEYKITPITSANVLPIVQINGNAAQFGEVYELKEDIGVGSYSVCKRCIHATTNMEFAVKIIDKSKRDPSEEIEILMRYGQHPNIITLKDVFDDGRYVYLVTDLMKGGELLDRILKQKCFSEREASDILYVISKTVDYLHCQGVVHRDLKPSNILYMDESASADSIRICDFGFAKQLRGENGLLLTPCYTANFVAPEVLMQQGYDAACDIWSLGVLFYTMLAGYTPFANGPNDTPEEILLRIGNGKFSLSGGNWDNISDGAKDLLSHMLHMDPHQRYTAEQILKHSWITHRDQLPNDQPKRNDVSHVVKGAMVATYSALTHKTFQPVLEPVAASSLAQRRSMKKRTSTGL
Sequence of UniProt P54764 (whole entry, looked up): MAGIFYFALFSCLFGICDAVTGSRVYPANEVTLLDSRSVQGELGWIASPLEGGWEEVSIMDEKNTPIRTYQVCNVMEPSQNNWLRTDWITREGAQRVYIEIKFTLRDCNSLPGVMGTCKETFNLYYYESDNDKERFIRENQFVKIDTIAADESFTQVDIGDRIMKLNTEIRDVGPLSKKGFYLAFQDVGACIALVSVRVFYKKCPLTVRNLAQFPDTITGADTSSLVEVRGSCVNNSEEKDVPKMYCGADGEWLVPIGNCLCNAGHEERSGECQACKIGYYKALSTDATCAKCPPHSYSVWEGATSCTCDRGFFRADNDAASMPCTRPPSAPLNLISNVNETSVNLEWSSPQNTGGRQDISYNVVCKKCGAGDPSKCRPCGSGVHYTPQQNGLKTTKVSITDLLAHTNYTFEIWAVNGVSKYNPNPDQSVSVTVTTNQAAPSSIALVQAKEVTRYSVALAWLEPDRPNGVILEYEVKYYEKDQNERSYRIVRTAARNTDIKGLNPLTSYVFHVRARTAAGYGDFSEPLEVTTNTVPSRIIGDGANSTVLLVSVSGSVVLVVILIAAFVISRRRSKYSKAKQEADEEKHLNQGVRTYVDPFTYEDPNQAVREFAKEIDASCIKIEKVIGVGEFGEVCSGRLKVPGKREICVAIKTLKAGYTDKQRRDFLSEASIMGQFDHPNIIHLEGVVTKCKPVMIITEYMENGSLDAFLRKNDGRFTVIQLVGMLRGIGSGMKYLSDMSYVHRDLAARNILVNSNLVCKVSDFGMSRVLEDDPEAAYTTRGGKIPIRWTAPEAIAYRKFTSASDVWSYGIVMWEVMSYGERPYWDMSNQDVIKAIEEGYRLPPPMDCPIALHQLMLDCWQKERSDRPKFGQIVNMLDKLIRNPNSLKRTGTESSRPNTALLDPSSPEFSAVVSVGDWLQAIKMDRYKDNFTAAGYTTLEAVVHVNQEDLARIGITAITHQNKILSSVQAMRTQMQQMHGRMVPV
Sequence of UniProt Q8NE63 (whole entry, looked up): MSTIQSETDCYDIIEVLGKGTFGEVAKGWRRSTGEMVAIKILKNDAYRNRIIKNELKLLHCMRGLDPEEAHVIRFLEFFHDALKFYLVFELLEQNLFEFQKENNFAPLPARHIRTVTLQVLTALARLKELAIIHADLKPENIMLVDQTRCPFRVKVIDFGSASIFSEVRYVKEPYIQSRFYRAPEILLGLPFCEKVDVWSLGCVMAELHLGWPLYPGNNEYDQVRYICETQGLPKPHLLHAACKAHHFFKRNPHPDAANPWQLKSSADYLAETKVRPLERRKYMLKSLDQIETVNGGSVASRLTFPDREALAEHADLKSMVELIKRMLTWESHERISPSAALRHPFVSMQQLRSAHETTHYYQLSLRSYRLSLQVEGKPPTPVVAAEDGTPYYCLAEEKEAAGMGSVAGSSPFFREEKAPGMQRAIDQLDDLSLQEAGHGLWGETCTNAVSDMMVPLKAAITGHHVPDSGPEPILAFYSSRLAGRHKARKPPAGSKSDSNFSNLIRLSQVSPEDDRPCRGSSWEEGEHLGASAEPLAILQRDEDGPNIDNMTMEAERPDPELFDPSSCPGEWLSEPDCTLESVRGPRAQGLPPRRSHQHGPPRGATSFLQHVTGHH
Sequence of UniProt O75582 (whole entry, looked up): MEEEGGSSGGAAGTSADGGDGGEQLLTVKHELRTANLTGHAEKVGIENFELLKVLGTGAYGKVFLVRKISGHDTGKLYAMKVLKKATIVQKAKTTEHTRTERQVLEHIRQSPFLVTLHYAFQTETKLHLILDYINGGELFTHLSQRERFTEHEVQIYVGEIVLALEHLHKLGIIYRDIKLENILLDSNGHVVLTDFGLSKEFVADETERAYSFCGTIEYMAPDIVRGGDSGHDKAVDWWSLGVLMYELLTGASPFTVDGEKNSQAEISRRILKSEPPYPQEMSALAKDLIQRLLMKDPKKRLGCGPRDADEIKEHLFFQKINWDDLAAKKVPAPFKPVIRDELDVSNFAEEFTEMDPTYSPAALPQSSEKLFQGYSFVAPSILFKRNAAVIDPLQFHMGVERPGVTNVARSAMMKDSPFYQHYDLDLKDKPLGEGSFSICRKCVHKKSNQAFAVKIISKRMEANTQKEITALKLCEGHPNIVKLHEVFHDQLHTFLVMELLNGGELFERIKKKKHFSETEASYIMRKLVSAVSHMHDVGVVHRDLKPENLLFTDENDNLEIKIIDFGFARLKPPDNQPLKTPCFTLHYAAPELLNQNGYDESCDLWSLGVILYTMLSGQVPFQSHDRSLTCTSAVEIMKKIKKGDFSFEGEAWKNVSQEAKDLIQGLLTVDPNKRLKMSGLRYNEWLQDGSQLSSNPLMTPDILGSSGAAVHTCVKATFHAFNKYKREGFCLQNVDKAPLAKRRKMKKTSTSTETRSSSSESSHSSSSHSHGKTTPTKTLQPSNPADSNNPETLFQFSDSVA
Sequence of UniProt P10721 (whole entry, unmodified, looked up): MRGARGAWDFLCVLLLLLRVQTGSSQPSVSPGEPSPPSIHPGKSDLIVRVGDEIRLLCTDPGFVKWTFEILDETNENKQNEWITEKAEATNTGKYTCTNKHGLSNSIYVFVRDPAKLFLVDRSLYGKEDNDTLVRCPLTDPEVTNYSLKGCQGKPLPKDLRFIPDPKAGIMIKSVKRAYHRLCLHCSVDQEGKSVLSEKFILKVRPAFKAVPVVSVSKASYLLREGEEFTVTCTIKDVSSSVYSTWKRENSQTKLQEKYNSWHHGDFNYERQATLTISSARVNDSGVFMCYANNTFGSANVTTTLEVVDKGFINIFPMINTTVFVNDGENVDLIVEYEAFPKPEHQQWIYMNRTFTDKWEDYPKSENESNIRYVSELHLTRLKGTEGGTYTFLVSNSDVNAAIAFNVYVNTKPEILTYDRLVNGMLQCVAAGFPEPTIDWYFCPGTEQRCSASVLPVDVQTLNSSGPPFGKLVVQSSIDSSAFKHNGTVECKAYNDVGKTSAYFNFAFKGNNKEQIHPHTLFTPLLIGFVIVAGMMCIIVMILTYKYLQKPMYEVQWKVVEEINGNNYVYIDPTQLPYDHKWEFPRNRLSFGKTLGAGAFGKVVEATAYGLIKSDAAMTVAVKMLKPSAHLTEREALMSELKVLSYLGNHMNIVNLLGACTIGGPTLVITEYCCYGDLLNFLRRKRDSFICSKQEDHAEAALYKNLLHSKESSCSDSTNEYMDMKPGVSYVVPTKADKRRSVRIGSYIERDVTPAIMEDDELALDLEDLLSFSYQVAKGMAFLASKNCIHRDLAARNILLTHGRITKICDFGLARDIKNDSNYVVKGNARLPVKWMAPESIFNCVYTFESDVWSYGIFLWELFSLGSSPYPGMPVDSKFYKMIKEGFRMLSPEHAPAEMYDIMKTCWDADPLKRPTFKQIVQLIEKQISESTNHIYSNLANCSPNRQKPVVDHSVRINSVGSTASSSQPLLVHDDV
Sequence of UniProt Q00526 (whole entry, looked up): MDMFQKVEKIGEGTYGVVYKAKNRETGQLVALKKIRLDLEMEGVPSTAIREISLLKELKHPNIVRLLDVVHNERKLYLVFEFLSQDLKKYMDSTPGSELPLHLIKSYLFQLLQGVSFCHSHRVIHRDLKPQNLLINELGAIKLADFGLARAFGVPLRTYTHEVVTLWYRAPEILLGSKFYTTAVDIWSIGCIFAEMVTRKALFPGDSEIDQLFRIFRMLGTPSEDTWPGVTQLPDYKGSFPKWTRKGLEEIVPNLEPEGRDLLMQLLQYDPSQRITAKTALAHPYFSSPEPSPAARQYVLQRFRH

Set 1 — effect on: enzyme activity; mode: inhibitor; concentration: 0.5 µM; baseline: control; endpoint: remaining activity
SMILES: N#Cc1cnc2cnc(NCc3cccnc3)cc2c1Nc1ccc(F)c(Cl)c1
Serine/threonine-protein kinase 17A (STK17A, Homo sapiens, UniProt Q9UEE5): 79.6%
Phosphorylase b kinase gamma catalytic chain, skeletal muscle/heart isoform (PHKG1, Homo sapiens, UniProt Q16816): 92%
Calcium/calmodulin-dependent protein kinase type II subunit beta (CAMK2B, Homo sapiens, UniProt Q13554): 97.4%
Tyrosine-protein kinase Blk (BLK, Homo sapiens, UniProt P51451): 99.9%
Homeodomain-interacting protein kinase 2 (HIPK2, Homo sapiens, UniProt Q9H2X6): 93.2%
Tyrosine-protein kinase receptor UFO (AXL, Homo sapiens, UniProt P30530): 103%
Ribosomal protein S6 kinase alpha-5 (RPS6KA5, Homo sapiens, UniProt O75582): 102%
Cyclin-dependent kinase 6, with cyclin D3 (CDK6, Homo sapiens, UniProt Q00534): 88.8%
Serine/threonine-protein kinase WNK3 (WNK3, Homo sapiens, UniProt Q9BYP7): 92.4%
Tyrosine-protein kinase Srms (SRMS, Homo sapiens, UniProt Q9H3Y6): 104%
Cyclin-dependent kinase 1, with cyclin B (CDK1, Homo sapiens, UniProt P06493): 84.5%
Testis-specific serine/threonine-protein kinase 2 (TSSK2, Homo sapiens, UniProt Q96PF2): 100%
Cyclin-dependent kinase 4, with cyclin D3 (CDK4, Homo sapiens, UniProt P11802): 101%
cAMP-dependent protein kinase catalytic subunit gamma (PRKACG, Homo sapiens, UniProt P22612): 115%
Ephrin type-A receptor 4 (EPHA4, Homo sapiens, UniProt P54764): 92.8%
3-phosphoinositide-dependent protein kinase 1 (PDPK1, Homo sapiens, UniProt O15530): 85.3%
Serine/threonine-protein kinase 16 (STK16, Homo sapiens, UniProt O75716): 93.8%
Ephrin type-B receptor 1 (EPHB1, Homo sapiens, UniProt P54762): 93.1%
Mitogen-activated protein kinase kinase kinase kinase 4 (MAP4K4, Homo sapiens, UniProt O95819): 44.4%
Homeodomain-interacting protein kinase 4 (HIPK4, Homo sapiens, UniProt Q8NE63): 93.1%
MAP kinase-activated protein kinase 3 (MAPKAPK3, Homo sapiens, UniProt Q16644): 94%
Dual specificity tyrosine-phosphorylation-regulated kinase 3 (DYRK3, Homo sapiens, UniProt O43781): 96.3%
Ephrin type-B receptor 4 (EPHB4, Homo sapiens, UniProt P54760): 85.2%
Ribosomal protein S6 kinase alpha-6 (RPS6KA6, Homo sapiens, UniProt Q9UK32): 104%

Set 2 — endpoint: inhibition
Structure (SMILES): CCCCCCCCCCCCCCCCOP(=O)([O-])OCC[N+](C)(C)C
THP-1; host cell growth; 2 µM: -2.62% and 5.83% and -1.05% and -0.8% and -2.18% and -0.89%
THP-1; host cell viability, high-content imaging; 40 µM: 102%
Leishmania donovani; parasite growth, imaging; THP-1; 0.1 µM, intracellular, amastigote: 5% and 9% and 4% and 2%
THP-1; host cell growth; 4 µM: 5% and 7.44% and 8% and 9.21% and 9%
THP-1; 20 µM, cytotoxicity: 71%
THP-1; host cell growth; 0.004 µM: -1.28% and 0.42% and -0.13% and -0.19% and -0.45% and -0.33%

Set 3 — endpoint: patients with adverse event
Compound: CC(C)n1cnc(-c2ccc(F)cc2)c1-c1ncc(C(=O)Nc2ccc(N3CCN(C)CC3)cc2)[nH]1
Phase 2a trial, measured: haemoptysis; human, idiopathic pulmonary fibrosis; 60 mg once daily, grade 2: 0%
Phase 2a trial, measured: hypokalaemia; human, idiopathic pulmonary fibrosis; 30 mg once daily, grade 4: 0%
Phase 2a trial, measured: haemorrhoids; human, idiopathic pulmonary fibrosis; all compound arms, grade 2: 0%
measured: periorbital oedema, grade 4; idiopathic pulmonary fibrosis patients; oral, 30 mg once daily: 0%
measured: prostatic calcification, maximum grade 2; idiopathic pulmonary fibrosis patients; oral, 30 mg once daily: 0%
Phase 2a trial, measured: hypocalcaemia; human, idiopathic pulmonary fibrosis; 60 mg once daily, grade 2: 0%
Phase 2a trial, measured: haemorrhoids; human, idiopathic pulmonary fibrosis; 60 mg once daily, grade 2: 0%
Phase 2a trial, measured: hypoalbuminaemia; human, idiopathic pulmonary fibrosis; 60 mg once daily, grade 2: 0%
Phase 2a trial, measured: hypertriglyceridaemia; human, idiopathic pulmonary fibrosis; 30 mg once daily, grade 5: 0%

Set 4 — effect on: cell-free assay; technique: competition with immobilised ligand; concentration: 0.1 µM; endpoint: remaining binding
Structure (SMILES): CS(=O)(=O)N1CCCC(NC(=O)[C@H](CCC2CCCCC2)NC(=O)c2ccc(CNC(=O)c3cnc4ccccn34)cc2)C1 (stereo partly drawn)
Mast/stem cell growth factor receptor Kit (KIT, Homo sapiens, UniProt P10721, D816H): 44%
Cyclin-dependent kinase 3 (CDK3, Homo sapiens, UniProt Q00526): 100%
Tyrosine-protein kinase ITK/TSK (ITK, Homo sapiens, UniProt Q08881): 90%
Epidermal growth factor receptor (EGFR, Homo sapiens, UniProt P00533): 76%
Tyrosine-protein kinase Blk (BLK, Homo sapiens, UniProt P51451): 100%
Serine/threonine-protein kinase N1 (PKN1, Homo sapiens, UniProt Q16512): 72%
Phosphatidylinositol 4,5-bisphosphate 3-kinase catalytic subunit gamma isoform (PIK3CG, Homo sapiens, UniProt P48736): 96%
Proto-oncogene tyrosine-protein kinase receptor Ret (RET, Homo sapiens, UniProt P07949, V804M): 100%
Epidermal growth factor receptor (EGFR, Homo sapiens, UniProt P00533, L858R): 83%
Mitogen-activated protein kinase kinase kinase 3 (MAP3K3, Homo sapiens, UniProt Q99759): 100%
Ribosomal protein S6 kinase alpha-4, C-terminal kinase domain (RPS6KA4, Homo sapiens, UniProt O75676): 100%
Tyrosine-protein kinase Mer (MERTK, Homo sapiens, UniProt Q12866): 94%
Dual specificity protein kinase CLK3 (CLK3, Homo sapiens, UniProt P49761): 100%
Calcium/calmodulin-dependent protein kinase type IV (CAMK4, Homo sapiens, UniProt Q16566): 94%
Aurora kinase B (AURKB, Homo sapiens, UniProt Q96GD4): 95%
